{"data": "Measurements from different studies", "target": "TGF-beta receptor type-2 (TGFBR2, Homo sapiens, UniProt P37173)", "note": "Protocols differ between the studies behind these lines."}
{"SMILES": "CNC(=O)C[C@H](Cc1ccc(C#N)cc1)NC(=O)c1cc(-c2ccc(CN[C@H](C)c3ccc(C)cc3)o2)ccc1Cl", "test": "enzyme activity, inhibitor", "conditions": "1 µM", "measurement": "activity vs control", "result": "96%"}
{"SMILES": "COc1cc(Nc2nccc(-c3cnn4nc(OC)ccc34)n2)cc(C(F)(F)F)c1", "test": "binding, competition with immobilised ligand", "conditions": "1 µM", "measurement": "remaining binding", "result": "60%"}
{"SMILES": "CN1CC[C@@H](COc2cnc(C#N)cc2-c2ccn3nc(NC(=O)C4CC4)cc3c2)C1", "test": "enzyme activity, inhibitor", "conditions": "1 µM", "measurement": "inhibition", "result": "22%"}
{"SMILES": "COc1c(Cl)cccc1Nc1c(-c2ccncc2C#C[C@@]2(C)CCCN2C(=O)/C=C/CN(C)C)[nH]c2c1C(=O)NCC2", "test": "cell-free assay, competition with immobilised ligand", "conditions": "3 µM", "measurement": "remaining binding", "result": "98%"}
{"SMILES": "NC(=O)[C@@H](O)C[C@H]1CCc2sc3ncnc(O[C@H]4CC[C@H](N5CCOCC5)CC4)c3c21", "test": "enzyme activity, inhibitor", "conditions": "10 µM", "measurement": "inhibition", "result": "-7%"}
{"SMILES": "CNC1C[S+]2CC[S+]3CC[S+](C1)[Ru-4]321([N]=C=S)[n]2c3ccc(OC)cc3c3c4c(c5cc(F)c[n+]1c5c32)C(=O)NC4=O (stereo not shown)", "test": "KinomeScan", "conditions": "0.1 µM", "scale": "baseline: untreated", "measurement": "remaining binding", "result": "99%"}
{"SMILES": "Nc1ncc(-c2cc(-c3cnn(CC(F)(F)F)c3)ncc2F)nc1C(=O)NC1CNCC(F)C1 (stereo not shown)", "test": "enzyme activity", "conditions": "1 µM", "scale": "baseline: DMSO control", "measurement": "remaining activity", "result": "94.8%"}
{"SMILES": "C=CC(=O)Nc1cc(-c2nn(C3CCN(CCNC(=O)[C@H](C)CCC45CC6CC(CC(C6)C4)C5)CC3)c3ncnc(N)c23)ccc1Oc1ccccc1", "test": "inhibitor, KiNativ profiling", "system": "biochemical", "conditions": "2 µM", "measurement": "inhibition", "result": "8.8%"}
{"SMILES": "CN1CCN(Cc2ccc(-c3ccc(CO[C@H]4CCC[C@@H]4NC(=O)c4cc(-c5cnn(C)c5)cnc4N)cc3)cc2)CC1", "test": "enzyme activity, inhibitor", "conditions": "0.1 µM", "measurement": "inhibition", "result": "6%"}
{"SMILES": "C=CC(=O)N1CCCC(n2c(=O)c3ncccc3n(Cc3ccc(Oc4ccccc4)cc3)c2=O)C1 (stereo not shown)", "test": "cell-free assay, competition with immobilised ligand", "conditions": "1 µM", "measurement": "remaining binding", "result": "97%"}
{"SMILES": "Cc1ccc(C(=O)Nc2ccc(CN3CCN(C)CC3)c(C(F)(F)F)c2)cc1C#Cc1cnc2cccnn12", "test": "target engagement, NanoBRET", "system": "human cells", "measurement": "upper asymptote", "result": 19.9}
{"SMILES": "CCN1CCN(Cc2ccc(NC(=O)c3ccc(C)c(NC(=O)c4cncc(-c5cnn(C)c5)c4)c3)cc2C(F)(F)F)CC1", "test": "binding, competition with immobilised ligand", "conditions": "1 µM", "measurement": "remaining binding", "result": "26%"}
{"SMILES": "C=CC(=O)N1CCc2ccc(-n3c(=O)ccc4cnc5ccc(-c6cnn(C)c6)cc5c43)cc21", "test": "KINOMEscan", "conditions": "1 µM", "scale": "baseline: DMSO control", "measurement": "remaining binding", "result": "100%"}
